Measurements of several laboratories.
Numbered parts are unrelated; each lists some results of a single study.
Sequence of UniProt Q02750 (whole entry, looked up): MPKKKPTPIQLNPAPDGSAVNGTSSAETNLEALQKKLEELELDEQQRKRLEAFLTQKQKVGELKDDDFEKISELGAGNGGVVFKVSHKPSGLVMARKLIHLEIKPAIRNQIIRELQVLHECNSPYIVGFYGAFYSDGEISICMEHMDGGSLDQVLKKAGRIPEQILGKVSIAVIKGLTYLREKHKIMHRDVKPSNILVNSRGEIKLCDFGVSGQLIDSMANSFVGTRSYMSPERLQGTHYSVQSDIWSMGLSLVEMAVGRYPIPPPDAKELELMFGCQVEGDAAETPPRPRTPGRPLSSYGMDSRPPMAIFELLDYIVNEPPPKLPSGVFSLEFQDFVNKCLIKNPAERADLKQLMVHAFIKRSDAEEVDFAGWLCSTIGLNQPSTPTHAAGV
Sequence of UniProt Q8N568 (whole entry, looked up): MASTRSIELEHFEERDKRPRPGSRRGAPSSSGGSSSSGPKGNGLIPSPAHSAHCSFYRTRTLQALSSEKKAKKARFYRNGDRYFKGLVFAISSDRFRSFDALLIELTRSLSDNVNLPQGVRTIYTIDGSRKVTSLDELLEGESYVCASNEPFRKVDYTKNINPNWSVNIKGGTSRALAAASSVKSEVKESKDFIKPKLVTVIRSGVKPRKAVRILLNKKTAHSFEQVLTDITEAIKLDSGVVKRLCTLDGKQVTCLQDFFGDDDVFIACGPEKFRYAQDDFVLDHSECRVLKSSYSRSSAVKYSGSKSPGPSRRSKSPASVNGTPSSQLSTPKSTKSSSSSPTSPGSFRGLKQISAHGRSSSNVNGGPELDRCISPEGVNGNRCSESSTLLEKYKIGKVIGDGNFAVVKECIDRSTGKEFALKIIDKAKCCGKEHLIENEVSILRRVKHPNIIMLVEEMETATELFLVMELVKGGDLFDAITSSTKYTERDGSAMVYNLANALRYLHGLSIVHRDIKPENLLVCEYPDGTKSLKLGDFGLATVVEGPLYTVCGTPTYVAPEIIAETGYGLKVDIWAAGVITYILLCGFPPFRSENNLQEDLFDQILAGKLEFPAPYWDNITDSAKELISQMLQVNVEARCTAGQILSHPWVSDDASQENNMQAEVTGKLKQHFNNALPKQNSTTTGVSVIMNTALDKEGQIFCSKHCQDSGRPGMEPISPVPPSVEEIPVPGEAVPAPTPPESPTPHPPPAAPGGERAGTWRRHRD
Sequence of UniProt P27037 (whole entry, looked up): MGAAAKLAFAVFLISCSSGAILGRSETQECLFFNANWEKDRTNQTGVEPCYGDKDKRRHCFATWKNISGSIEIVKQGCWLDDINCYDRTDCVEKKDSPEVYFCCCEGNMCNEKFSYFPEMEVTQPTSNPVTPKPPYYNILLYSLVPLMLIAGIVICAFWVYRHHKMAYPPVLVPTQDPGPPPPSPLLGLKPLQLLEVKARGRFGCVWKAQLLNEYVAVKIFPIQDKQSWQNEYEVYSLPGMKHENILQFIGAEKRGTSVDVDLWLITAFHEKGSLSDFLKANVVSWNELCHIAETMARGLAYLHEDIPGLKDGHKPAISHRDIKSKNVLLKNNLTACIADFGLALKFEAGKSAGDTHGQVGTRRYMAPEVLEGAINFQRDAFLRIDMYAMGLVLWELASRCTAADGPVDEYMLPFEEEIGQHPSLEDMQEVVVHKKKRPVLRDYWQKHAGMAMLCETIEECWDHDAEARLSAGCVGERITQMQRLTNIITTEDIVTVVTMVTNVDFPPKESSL
Sequence of UniProt P46734 (whole entry, looked up): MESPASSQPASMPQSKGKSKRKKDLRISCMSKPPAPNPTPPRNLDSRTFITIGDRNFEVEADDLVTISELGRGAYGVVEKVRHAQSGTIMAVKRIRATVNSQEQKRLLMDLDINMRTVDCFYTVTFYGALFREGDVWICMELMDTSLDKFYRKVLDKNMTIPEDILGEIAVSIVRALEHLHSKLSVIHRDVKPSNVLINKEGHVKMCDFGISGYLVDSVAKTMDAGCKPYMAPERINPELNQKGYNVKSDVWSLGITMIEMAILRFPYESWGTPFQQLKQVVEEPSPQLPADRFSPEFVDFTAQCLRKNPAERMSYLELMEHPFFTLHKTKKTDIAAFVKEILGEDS
Sequence of UniProt Q8NG66 (whole entry, looked up): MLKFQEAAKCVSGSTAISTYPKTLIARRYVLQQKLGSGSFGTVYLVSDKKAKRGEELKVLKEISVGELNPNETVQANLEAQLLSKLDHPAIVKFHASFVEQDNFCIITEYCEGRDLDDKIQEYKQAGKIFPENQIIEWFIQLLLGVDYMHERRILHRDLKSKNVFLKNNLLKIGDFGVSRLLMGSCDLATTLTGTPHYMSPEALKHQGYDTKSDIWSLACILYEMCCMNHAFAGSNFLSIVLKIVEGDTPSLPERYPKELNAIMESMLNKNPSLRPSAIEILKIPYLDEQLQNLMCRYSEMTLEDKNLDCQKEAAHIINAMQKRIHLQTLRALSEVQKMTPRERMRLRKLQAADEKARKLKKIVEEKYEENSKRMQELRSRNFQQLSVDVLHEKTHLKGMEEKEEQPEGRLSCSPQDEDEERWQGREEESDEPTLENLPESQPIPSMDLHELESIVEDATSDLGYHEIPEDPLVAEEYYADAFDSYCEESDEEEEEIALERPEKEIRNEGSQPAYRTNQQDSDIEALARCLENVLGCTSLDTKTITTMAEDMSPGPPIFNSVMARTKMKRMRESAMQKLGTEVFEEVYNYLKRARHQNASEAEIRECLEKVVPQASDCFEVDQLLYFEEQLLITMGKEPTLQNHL
Sequence of UniProt Q6P2M8 (whole entry, looked up): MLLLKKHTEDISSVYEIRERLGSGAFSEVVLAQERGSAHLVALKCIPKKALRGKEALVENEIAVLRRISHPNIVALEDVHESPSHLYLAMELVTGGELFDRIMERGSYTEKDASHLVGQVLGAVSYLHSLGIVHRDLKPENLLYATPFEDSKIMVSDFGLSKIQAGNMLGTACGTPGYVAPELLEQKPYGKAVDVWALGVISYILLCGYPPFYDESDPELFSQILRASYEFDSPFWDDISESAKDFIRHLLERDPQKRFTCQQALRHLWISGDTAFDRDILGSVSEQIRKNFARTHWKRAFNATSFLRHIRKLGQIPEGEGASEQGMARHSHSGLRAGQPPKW
Sequence of UniProt P57078 (whole entry, looked up): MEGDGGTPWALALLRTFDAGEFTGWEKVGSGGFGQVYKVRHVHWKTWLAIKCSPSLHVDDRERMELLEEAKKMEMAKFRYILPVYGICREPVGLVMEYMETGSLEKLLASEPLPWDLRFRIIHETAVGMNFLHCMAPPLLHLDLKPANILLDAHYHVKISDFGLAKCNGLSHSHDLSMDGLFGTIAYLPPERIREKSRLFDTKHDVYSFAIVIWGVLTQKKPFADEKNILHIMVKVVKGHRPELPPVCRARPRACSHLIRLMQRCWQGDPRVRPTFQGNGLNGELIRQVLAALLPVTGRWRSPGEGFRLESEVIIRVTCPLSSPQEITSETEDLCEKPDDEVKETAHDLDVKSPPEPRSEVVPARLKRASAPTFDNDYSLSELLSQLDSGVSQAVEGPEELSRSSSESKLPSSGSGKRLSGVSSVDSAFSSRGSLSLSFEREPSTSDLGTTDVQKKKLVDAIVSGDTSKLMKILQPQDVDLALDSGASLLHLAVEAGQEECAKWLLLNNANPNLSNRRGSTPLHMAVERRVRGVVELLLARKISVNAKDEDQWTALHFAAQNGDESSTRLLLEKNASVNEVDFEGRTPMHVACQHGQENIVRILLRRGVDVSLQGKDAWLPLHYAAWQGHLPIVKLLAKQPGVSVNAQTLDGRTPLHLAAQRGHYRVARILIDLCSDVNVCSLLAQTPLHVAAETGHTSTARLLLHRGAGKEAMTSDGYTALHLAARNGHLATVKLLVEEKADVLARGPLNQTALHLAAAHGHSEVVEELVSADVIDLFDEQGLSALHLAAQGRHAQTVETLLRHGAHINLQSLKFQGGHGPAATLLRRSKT
Sequence of UniProt O75914 (whole entry, looked up): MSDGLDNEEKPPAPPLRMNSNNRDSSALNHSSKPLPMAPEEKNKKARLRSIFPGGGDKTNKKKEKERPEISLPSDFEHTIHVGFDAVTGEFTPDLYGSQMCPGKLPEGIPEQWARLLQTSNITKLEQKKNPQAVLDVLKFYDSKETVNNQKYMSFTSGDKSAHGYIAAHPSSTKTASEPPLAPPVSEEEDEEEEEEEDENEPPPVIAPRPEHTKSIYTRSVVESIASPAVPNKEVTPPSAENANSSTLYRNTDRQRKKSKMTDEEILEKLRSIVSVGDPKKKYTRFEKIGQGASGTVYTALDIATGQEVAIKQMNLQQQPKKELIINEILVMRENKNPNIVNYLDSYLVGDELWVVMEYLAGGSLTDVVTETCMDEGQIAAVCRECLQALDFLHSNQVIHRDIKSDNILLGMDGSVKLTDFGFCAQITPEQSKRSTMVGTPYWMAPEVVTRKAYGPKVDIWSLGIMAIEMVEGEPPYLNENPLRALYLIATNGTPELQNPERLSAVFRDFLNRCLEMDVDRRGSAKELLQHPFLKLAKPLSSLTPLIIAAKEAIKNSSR
Sequence of UniProt Q16539 (whole entry, looked up): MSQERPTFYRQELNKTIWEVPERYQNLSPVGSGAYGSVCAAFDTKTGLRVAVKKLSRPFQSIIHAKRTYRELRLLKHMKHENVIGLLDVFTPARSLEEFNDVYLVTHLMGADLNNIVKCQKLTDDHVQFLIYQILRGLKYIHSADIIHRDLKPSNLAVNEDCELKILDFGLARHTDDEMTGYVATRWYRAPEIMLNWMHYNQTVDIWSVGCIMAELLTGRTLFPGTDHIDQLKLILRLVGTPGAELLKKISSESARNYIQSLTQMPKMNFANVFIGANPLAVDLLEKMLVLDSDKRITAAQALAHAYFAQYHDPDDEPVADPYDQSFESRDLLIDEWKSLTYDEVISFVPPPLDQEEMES

Study 1
SMILES: COc1cc2ncnc(Nc3ccc(OCc4ccccc4)cc3)c2cc1OC
Effect on: enzyme activity
Action: inhibitor
Concentration: 0.5 µM
Baseline: control
| target | remaining activity [%] |
| --- | --- |
| Serine/threonine-protein kinase DCLK2 (DCLK2, Homo sapiens, UniProt Q8N568) | 102 |
| Cyclin-dependent kinase 1, with cyclin A (CDK1, Homo sapiens, UniProt P06493) | 97.2 |
| Rho-associated protein kinase 1 (ROCK1, Homo sapiens, UniProt Q13464) | 96.6 |
| Calcium/calmodulin-dependent protein kinase type 1B (PNCK, Homo sapiens, UniProt Q6P2M8) | 99 |
| Dual specificity protein kinase CLK4 (CLK4, Homo sapiens, UniProt Q9HAZ1) | 99.5 |
| Serine/threonine-protein kinase MRCK beta (CDC42BPB, Homo sapiens, UniProt Q9Y5S2) | 98.8 |
| Ribosomal protein S6 kinase alpha-4 (RPS6KA4, Homo sapiens, UniProt O75676) | 105 |
| Serine/threonine-protein kinase PLK3 (PLK3, Homo sapiens, UniProt Q9H4B4) | 98 |
| Dual specificity mitogen-activated protein kinase kinase 1 (MAP2K1, Homo sapiens, UniProt Q02750) | 94.7 |
| Dual specificity protein kinase CLK3 (CLK3, Homo sapiens, UniProt P49761) | 98.2 |
| Cyclin-dependent kinase 9, with cyclin K (CDK9, Homo sapiens, UniProt P50750) | 103 |
| Mitogen-activated protein kinase 14 (MAPK14, Homo sapiens, UniProt Q16539) | 101 |
| Calcium/calmodulin-dependent protein kinase type IV (CAMK4, Homo sapiens, UniProt Q16566) | 101 |
| Serine/threonine-protein kinase PAK 3 (PAK3, Homo sapiens, UniProt O75914) | 97.7 |

Study 2
Cell line: mouse MPNST tumor cells
Technique: high-content nuclear imaging
Refers to: cell number
Concentration: 10 µM
Time: 12 h
Notes: mean of 2 replicates
Baseline: plate mean
Reading: higher = more cells
| SMILES | nuclei count |
| --- | --- |
| CC(C)N1CCN(S(=O)(=O)c2ccc(NC(=O)c3ccc(C(F)(F)F)cc3[N+](=O)[O-])cc2)CC1 | 2.45 z-score |
| CCc1cc(C(N)=S)ccn1 | -0.632 z-score |
| OC[C@H](Cc1ccccc1)Nc1nc(Oc2ccc3c(c2)CCC3)nc2c1ncn2Cc1ccc(-c2ccccc2)cc1 | 3.61 z-score |
| CCc1c(C(=O)Nc2cc(S(=O)(=O)N(CC)CC)ccc2O)[nH]c(C)c1C(C)=O | 0.505 z-score |
| CC(N)CCCC(C)(C)O (stereo not shown) | -0.274 z-score |

Study 3
Structure (SMILES): C=CC(=O)N1CCC[C@@H](n2nc(-c3ccc(Oc4ccccc4)cc3)c3c(N)ncnc32)C1
Action: inhibitor
Concentration: 1 µM
| target | test | inhibition |
| --- | --- | --- |
| Tyrosine-protein kinase SYK (SYK, Homo sapiens, UniProt P43405) | enzyme activity | 21% |
| Serine/threonine-protein kinase Nek2 (NEK2, Homo sapiens, UniProt P51955) | enzyme activity | 23% |
| Dual specificity mitogen-activated protein kinase kinase 3 (MAP2K3, Homo sapiens, UniProt P46734) | enzyme activity | 20% |
| Serine/threonine-protein kinase N1 (PKN1, Homo sapiens, UniProt Q16512) | – | 20% |
| Receptor-interacting serine/threonine-protein kinase 4 (RIPK4, Homo sapiens, UniProt P57078) | enzyme activity | 9% |

Study 4
SMILES: Nc1c(C(=O)NCc2ccc(C(=O)NCCCC3CCCCC3)cc2)cnn1-c1ccccc1
Effect on: cell-free assay
Technique: competition with immobilised ligand
Concentration: 0.1 µM
| target | remaining binding [%] |
| --- | --- |
| ALK tyrosine kinase receptor (ALK, Homo sapiens, UniProt Q9UM73, C1156Y) | 100 |
| Ephrin type-B receptor 1 (EPHB1, Homo sapiens, UniProt P54762) | 100 |
| Dual specificity mitogen-activated protein kinase kinase 1 (MAP2K1, Homo sapiens, UniProt Q02750) | 100 |
| Serine/threonine-protein kinase pim-3 (PIM3, Homo sapiens, UniProt Q86V86) | 91 |
| Serine/threonine-protein kinase Nek11 (NEK11, Homo sapiens, UniProt Q8NG66) | 94 |
| Activin receptor type-2A (ACVR2A, Homo sapiens, UniProt P27037) | 100 |
| MAP kinase-interacting serine/threonine-protein kinase 2 (MKNK2, Homo sapiens, UniProt Q9HBH9) | 100 |
